Assay results from different studies.
Compare with care: the assays were run in different laboratories. Values joined by “and” are separate records of one study, mostly repeats; a detail may differ. ± gives the spread as reported. ≈ marks a conversion by molar mass, not a printed value.
Chain of UniProt Q4U2R8 (whole entry, looked up): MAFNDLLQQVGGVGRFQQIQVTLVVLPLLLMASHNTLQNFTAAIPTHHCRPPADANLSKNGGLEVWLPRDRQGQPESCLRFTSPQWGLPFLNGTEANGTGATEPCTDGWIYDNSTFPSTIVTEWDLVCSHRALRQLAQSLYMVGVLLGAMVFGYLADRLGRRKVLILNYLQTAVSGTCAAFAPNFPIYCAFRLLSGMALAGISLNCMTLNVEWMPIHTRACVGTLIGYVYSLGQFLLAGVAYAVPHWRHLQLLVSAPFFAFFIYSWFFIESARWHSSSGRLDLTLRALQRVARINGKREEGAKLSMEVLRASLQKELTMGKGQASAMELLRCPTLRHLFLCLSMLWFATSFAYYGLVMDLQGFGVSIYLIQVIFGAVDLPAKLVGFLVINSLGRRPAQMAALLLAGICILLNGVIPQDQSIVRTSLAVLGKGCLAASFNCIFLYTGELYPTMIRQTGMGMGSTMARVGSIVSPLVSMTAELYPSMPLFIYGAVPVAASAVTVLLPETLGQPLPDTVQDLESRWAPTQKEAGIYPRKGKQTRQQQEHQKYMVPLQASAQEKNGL
Chain of UniProt Q9UNQ0 (whole entry, looked up): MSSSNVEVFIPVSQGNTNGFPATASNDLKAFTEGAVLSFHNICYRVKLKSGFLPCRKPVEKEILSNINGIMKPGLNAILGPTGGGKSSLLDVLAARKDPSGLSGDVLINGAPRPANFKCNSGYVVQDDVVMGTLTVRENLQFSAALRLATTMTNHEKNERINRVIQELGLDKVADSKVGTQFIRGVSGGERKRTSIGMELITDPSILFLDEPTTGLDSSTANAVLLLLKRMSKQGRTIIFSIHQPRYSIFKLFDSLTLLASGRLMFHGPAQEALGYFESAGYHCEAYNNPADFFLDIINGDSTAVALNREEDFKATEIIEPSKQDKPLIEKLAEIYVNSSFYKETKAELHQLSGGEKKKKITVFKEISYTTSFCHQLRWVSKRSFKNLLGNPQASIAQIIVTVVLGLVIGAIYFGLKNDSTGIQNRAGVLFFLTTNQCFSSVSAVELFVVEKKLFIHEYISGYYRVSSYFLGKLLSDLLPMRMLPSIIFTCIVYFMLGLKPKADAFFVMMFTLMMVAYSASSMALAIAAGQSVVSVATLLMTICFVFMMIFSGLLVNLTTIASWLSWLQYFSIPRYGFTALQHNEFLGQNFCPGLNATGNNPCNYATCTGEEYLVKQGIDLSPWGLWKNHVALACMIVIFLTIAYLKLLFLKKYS

| Structure (SMILES) | tested on | test | system | conditions | how to read | endpoint | result |
| --- | --- | --- | --- | --- | --- | --- | --- |
| CN(C)CCCNC(=O)[C@@H]1NC(=O)[C@@H]2Cc3ccc(cc3)Oc3cc4cc(c3O)-c3ccc5c(c[nH]c5c3)C[C@@H](NC(=O)C(NC(=O)CCCCCN)c3ccc(O)cc3)C(=O)N[C@H](c3ccc(O)cc3)C(=O)N[C@H]4C(=O)N[C@@H](C(=O)N2C)c2ccc(cc2)Oc2cc1ccc2O (stereo partly drawn) | human red blood cells |  |  | 16 µg/mL, 1 h, 37 °C, 1% DMSO |  | hemolysis | 1.42% |
| Cc1ccc(OCC2CN(C)C2)cc1C(=O)N[C@H](C)c1cc(-c2cnn(C)c2)nc2ccccc12 | Vero E6 |  |  | 250 µM |  | viability | 0.536% and 1.43% and 0.357% |
| COc1ccc2c3c1O[C@H]1[C@H](O)CC[C@@]4(O)[C@@H](C2)N(C)CC[C@]314 |  |  | octanol/water, borax buffer | 1 h, pH 9.84, ionic strength 0 M |  | logD | 1.06 |
| CCCCCC1=C(NCC)C(=O)C(C/C=C(\C)CCC=C(C)C)=C(O)C1=O | human peripheral blood lymphocytes |  |  | 10 µg/mL, 24 h, without S9 |  | cytostasis | -9% |
| O=C1NC2(CC2)COc2ncc(F)cc2[C@H]2COCCN2c2ccn3ncc1c3n2 |  |  | Sprague-Dawley rat, female, serum | oral, 5 mg/kg/day, 4 weeks daily, end of treatment |  | total cholesterol | 2.08 ± 0.37 mmol/L |
| Cc1ccc(N2CCN(C)[C@H](C)C2)cc1C(=O)N[C@H](C)c1cc(-c2cnn(C)c2)nc2ccccc12 | African green monkey cells |  |  | 125 µM |  | viability | 3.45% |
| CC(C)N1CN(C2c3ccccc3CSc3ccccc32)n2cc(C(=O)O)c(=O)c(O)c2C1=O (stereo not drawn) |  |  | bovine cells |  |  | CC50 | > 10 µM |
| Oc1ccc2c3c1OC1C(O)C=CC4C(C2)N(CC2CCC2)CCC341 (stereo not drawn) |  | PAMPA-BBB | porcine brain lipid | 500 µM, 4 h, pH 7.4, 1% DMSO |  | Papp | 18.3 ×10⁻⁶ cm/s |
| O=C(O)c1cccc(CP(=O)(O)O)n1 | HepG2 | membrane integrity, CFDA-AM |  | 24 h, without 10% FBS |  | EC50 | > 250 µg/mL |
| Cc1ccc(N2CC(N(C)C)C2)cc1C(=O)N[C@H](C)c1cc(-c2cnn(C)c2)nc2ccccc12 | Vero E6 |  |  | 7.812 µM |  | viability | 96.9% and 95.8% and 98.1% |
| COc1cc2c(cc1NC(=O)c1cncn1C)C[C@H]1[C@H]3CCCC[C@@]23CCN1C |  |  | C57BL/6 mice, plasma | oral, 50 µg/g, 60 min |  | plasma concentration | 9810 ng/mL and 13400 ng/mL and 9530 ng/mL and 11200 ng/mL |
| Cc1ccn2c(-c3csc(Nc4ccccn4)n3)c(C)nc2c1 | CHO | cytotoxicity |  | 3 days |  | IC50 | > 10 µM |
| CC(=O)NCCCC[C@@H]1NC(=O)[C@H](Cc2c[nH]c3c(C)cccc23)NC(=O)[C@H]([C@@H](C)O)NC(=O)[C@H](CC(N)=O)NC(=O)[C@@H](NC(C)=O)C(C)(C)SSC(C)(C)[C@@H](C(=O)N[C@@H](Cc2ccc(OCCN)cc2)C(=O)N[C@@H](Cc2ccc3ccccc3c2)C(=O)NC2(C(=O)N[C@@H](CCC(=O)O)C(=O)N[C@@H](CC(N)=O)C(=O)N[C@@H](Cc3cccnc3)C(=O)N(C)CC(N)=O)CCOCC2)NC1=O | Broad substrate specificity ATP-binding cassette transporter ABCG2 (ABCG2, Homo sapiens, UniProt Q9UNQ0) | transport, inhibitor | LLC-PK1 cells | concentration not given, with: [3H]prazosin |  | inhibition | no inhibition |
| Cc1ccc(N2CCN(C)CC2)cc1C(=O)N[C@H](C)c1cc(-c2cnn(C)c2)nc2ccccc12 | African green monkey cells |  |  | 7.812 µM |  | viability | 95.6% |
| O=C1CC[C@H]2[C@H]3Cc4ccc(O)c5c4[C@@]2(CCN3CCc2ccccc2)[C@H]1O5 |  |  | octanol/buffer | 1 h, pH 7.4 |  | logD | 1.69 |
| CC[C@H](C)[C@H](NC(=O)[C@H](CCCCN)NC(=O)[C@H](CCCCN)NC(=O)[C@H](Cc1ccccc1)NC(=O)[C@H](Cc1ccccc1)NC(=O)[C@H](CCCCN)NC(=O)[C@H](CCCCN)NC(=O)[C@H](Cc1ccccc1)NC(=O)[C@H](CCCNC(=N)N)NC(=O)[C@@H](N)CCCCN)C(=O)N[C@@H](CCCCN)C(=O)N[C@@H](CCCCN)C(=O)N[C@@H](CO)C(=O)N[C@H](C(=O)N[C@@H](CCCCN)C(=O)N[C@@H](CCCCN)C(=O)N[C@@H](CCCNC(=N)N)C(=O)N[C@H](C(=O)N[C@@H](CCCCN)C(=O)N[C@@H](CCCCN)C(=O)N[C@@H](CC(C)C)C(=O)N[C@@H](Cc1ccccc1)C(=O)N[C@@H](CCCCN)C(=O)N[C@@H](CCCCN)C(=O)N1CCC[C@H]1C(=O)N[C@@H](CCCNC(=N)N)C(=O)N[C@H](C(=O)N[C@H](C(=O)N1CCC[C@H]1C(=O)N[C@H](C(=O)N[C@@H](CO)C(=O)N[C@H](C(=O)N1CCC[C@H]1C(=O)N[C@@H](Cc1ccccc1)C(=O)O)[C@@H](C)CC)[C@@H](C)CC)[C@@H](C)CC)C(C)C)C(C)C)C(C)C | Escherichia coli |  | E24 | after heating at 90 °C |  | MIC | 4 µg/mL (≈ 0.948 µM) |
| COc1ccc2c3c1O[C@H]1[C@@H](O)C=C[C@H]4[C@@H](C2)N(CCc2ccccc2)CC[C@@]341 |  |  | octanol/phosphate buffer | 1 h, pH 5.74, ionic strength 0.15 M |  | logD | 1.05 |

| Structure (SMILES) | tested on | test | system | conditions | how to read | endpoint | result |
| --- | --- | --- | --- | --- | --- | --- | --- |
| Cn1nc(CCN)c(=O)c2c(=O)[nH]c(N)nc21 | Escherichia coli | LC-MS/MS | BW25113 | 100 µM, 10 min, 37 °C |  | intracellular accumulation | 4.56 µM |
| CN(C)c1ccc(-c2nc3ccccc3n2CCCOc2ccccc2)cc1 | HEp-2 | cell growth or viability, ATP luminescence |  | 72 h |  | IC50 | > 7.22 µM |
| C[C@@H](N1CN([C@H]2c3ccccc3CSc3ccccc32)n2cc(C(=O)O)c(=O)c(O)c2C1=O)C(F)(F)F |  |  | hamster cells |  |  | CC50 | > 10 µM |
| Nc1nc(Nc2ccc(Cl)c(Cl)c2)nn1S(=O)(=O)c1ccc2ccccc2c1 | Syrian hamster cells |  |  |  |  | CC50 | 10 µM |
| CCn1ccc(-c2cc([C@@H](C)NC(=O)c3cc(OC[C@H]4CCCN4C)ccc3C)c3ccccc3n2)n1 | Vero E6 |  |  | 15.62 µM |  | viability | 88.1% and 93.4% and 101% |
| O=C(C=Cc1ccc(O)c(O)c1)OC1CC(O)(C(=O)O)CC(OC(=O)C=Cc2ccc(O)c(O)c2)C1O (stereo not drawn) | Vero E6 |  |  | 50 µM |  | cytotoxicity | 0% |
| COc1ccc2c3c1O[C@H]1[C@H](O)C=C[C@@]4(O)[C@@H](C2)N(C)CC[C@]314 |  | pH-potentiometric titration |  |  | relative to: O-methyl derivative | Δlog K, isomerization effect | -0.01 log units |
| CCn1ccc(-c2cc([C@@H](C)NC(=O)c3cc(OCCN(C)C)ccc3C)c3ccccc3n2)n1 | Vero E6 |  |  | 15.62 µM |  | viability | 82% and 96.2% and 81.6% |
| Cc1nc2cccc(OCC(C)(C)C(=O)NC(C)C)c2c(N)c1C(=O)[O-].[Na+] | Escherichia coli | reverse mutation, preincubation | WP2 uvrA | 2.0 mg/plate, with rat liver S9 |  | revertant colonies | 35 ± 8 colonies/plate |
| Cc1cc(-c2ccc3ccccc3c2)nnc1NCCN1CCN(C)CC1 | Solute carrier family 22 member 6 (SLC22A6, Homo sapiens, UniProt Q4U2R8) | transporter uptake, inhibitor |  | 10 µM |  | inhibition | 3% |
| O=C1CC[C@@]2(O)[C@H]3Cc4ccc(O)c5c4[C@@]2(CCN3CC2CCC2)[C@H]1O5 |  | PAMPA-BBB | porcine brain lipid | 500 µM, 4 h, pH 7.4, 1% DMSO |  | Papp | 33 ×10⁻⁶ cm/s |
| CCn1ccc(-c2cc(-c3cnn(C)c3)cc([C@@H](C)NC(=O)c3cc(OCCN(C)C)ccc3C)c2)n1 | African green monkey cells |  |  | 7.812 µM |  | viability | 97.7% |
| CN1CC[C@]23c4c5ccc(O)c4O[C@H]2[C@H](O)CC[C@@]3(O)[C@H]1C5 |  |  | octanol/buffer | 1 h, pH 7.4 |  | logD | -1.07 |
| CC[C@H](C)[C@H](NC(=O)[C@H](CC(=O)O)NC(=O)[C@@H](NC(=O)[C@@H]1CCCN1C(=O)[C@@H](N)CCCNC(=N)N)[C@@H](C)O)C(=O)N[C@@H](CCCCN)C(=O)N[C@H]1CSSC[C@@H]2NC(=O)[C@H](CCCNC(=N)N)NC(=O)CNC(=O)[C@H](CC(N)=O)NC(=O)[C@H]([C@@H](C)O)NC(=O)[C@H](CCCCN)NC(=O)CNC(=O)[C@H](Cc3ccccc3)NC(=O)[C@H](CCCNC(=N)N)NC(=O)[C@H](CO)NC(=O)[C@H](CCCCNC(=O)OCc3cc(OC)c(OC)cc3[N+](=O)[O-])NC(=O)[C@@H]3CSSC[C@@H](C(=O)N[C@@H](Cc4ccccc4)C(=O)O)NC(=O)[C@H](CC(=O)O)NC(=O)[C@H](CSSC[C@H](NC(=O)[C@H](CCC(N)=O)NC(=O)[C@H](Cc4ccc(O)cc4)NC(=O)[C@H](CO)NC(=O)[C@H](CCC(=O)O)NC(=O)[C@H](CO)NC1=O)C(=O)N[C@@H](Cc1ccccc1)C(=O)N1CCC[C@H]1C(=O)N[C@@H](C(C)C)C(=O)N3)NC(=O)[C@H](Cc1ccccc1)NC(=O)CNC(=O)[C@H](CC(N)=O)NC(=O)[C@H](C(C)C)NC2=O | human iPS-derived cardiomyocytes |  |  | 200 nM, after illumination 365 nm |  | cells with EADs | 47% |
| Cc1ccc(OC[C@@H]2CCN2C)cc1C(=O)N[C@H](C)c1cc(-c2cnn(C)c2)nc2ccccc12 | Vero E6 |  |  | 250 µM |  | viability | 1.27% |
| COc1ccc2c3c1O[C@H]1[C@H](O)C=C[C@H]4[C@@H](C2)N(C)CC[C@@]341 |  |  | octanol/buffer | 1 h, pH 7.4 |  | logD | 0.42 |
